Published values gathered from unrelated publications.
Lines come from different studies, so protocols differ. Numbers after ± are the reported error.
BRAP ZnF-UBD domain: BRCA1-associated protein, ZnF-UBD domain (BRAP, Homo sapiens, UniProt Q7Z569)
UniProt Q7Z569, sequence (whole entry, looked up): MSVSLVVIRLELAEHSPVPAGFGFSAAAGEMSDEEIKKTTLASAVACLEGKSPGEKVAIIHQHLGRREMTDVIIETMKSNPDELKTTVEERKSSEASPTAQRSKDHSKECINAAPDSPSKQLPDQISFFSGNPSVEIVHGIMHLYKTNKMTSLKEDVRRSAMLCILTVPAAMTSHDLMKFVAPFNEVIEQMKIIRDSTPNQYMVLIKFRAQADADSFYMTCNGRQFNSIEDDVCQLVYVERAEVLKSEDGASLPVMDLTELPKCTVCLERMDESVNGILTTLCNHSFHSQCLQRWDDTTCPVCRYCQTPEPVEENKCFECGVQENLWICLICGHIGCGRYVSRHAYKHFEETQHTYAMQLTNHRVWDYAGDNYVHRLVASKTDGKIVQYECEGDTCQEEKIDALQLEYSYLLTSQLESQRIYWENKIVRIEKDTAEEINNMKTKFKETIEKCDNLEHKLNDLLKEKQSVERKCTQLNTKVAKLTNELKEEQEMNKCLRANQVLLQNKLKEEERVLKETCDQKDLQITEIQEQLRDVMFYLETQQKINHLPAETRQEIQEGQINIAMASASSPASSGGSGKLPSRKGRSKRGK
HDAC4: Histone deacetylase 4 (HDAC4, Homo sapiens, UniProt P56524)
UniProt P56524, sequence (whole entry, looked up): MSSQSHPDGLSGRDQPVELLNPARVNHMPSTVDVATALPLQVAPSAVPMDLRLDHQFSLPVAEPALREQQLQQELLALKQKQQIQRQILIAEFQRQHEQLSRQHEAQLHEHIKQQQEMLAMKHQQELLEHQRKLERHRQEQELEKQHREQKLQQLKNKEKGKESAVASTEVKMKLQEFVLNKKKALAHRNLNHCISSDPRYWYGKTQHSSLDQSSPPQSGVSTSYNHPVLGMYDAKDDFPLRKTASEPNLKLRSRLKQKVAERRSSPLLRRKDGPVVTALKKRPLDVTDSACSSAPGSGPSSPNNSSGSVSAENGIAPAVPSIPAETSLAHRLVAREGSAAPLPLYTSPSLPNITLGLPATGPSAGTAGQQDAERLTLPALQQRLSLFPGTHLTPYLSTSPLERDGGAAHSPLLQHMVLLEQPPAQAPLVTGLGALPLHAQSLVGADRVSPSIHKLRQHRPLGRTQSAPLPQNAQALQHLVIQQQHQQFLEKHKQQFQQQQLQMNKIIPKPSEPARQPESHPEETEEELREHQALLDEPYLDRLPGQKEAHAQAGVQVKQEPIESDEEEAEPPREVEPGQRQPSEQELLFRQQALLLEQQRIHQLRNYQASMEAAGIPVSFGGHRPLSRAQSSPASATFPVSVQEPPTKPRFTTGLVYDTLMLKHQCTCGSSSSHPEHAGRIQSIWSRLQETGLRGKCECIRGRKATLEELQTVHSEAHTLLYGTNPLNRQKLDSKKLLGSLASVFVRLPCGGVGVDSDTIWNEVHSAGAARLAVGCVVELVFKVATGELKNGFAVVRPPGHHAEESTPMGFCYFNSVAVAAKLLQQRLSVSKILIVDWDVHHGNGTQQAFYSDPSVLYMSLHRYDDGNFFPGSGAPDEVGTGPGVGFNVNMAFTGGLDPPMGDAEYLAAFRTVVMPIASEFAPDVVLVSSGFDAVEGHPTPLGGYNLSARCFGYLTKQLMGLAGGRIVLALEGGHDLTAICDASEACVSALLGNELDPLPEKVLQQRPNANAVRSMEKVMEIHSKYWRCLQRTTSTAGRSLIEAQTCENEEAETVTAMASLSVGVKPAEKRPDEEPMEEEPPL
UniProt P40337, sequence (whole entry, looked up): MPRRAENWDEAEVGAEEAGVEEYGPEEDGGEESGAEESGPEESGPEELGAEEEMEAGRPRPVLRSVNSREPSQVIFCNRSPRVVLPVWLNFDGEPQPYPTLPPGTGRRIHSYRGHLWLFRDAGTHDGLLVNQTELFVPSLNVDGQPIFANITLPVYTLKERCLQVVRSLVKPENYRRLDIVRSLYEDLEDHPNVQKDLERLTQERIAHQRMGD
UniProt P35218, sequence (whole entry, looked up): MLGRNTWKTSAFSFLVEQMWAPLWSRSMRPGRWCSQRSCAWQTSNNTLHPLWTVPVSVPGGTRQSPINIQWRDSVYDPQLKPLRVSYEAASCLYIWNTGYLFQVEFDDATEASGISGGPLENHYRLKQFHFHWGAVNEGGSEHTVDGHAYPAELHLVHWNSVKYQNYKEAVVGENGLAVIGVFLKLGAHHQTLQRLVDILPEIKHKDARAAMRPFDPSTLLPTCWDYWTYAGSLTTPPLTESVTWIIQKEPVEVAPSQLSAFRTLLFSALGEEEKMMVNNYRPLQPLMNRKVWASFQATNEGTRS
UniProt Q13489, sequence (whole entry, looked up): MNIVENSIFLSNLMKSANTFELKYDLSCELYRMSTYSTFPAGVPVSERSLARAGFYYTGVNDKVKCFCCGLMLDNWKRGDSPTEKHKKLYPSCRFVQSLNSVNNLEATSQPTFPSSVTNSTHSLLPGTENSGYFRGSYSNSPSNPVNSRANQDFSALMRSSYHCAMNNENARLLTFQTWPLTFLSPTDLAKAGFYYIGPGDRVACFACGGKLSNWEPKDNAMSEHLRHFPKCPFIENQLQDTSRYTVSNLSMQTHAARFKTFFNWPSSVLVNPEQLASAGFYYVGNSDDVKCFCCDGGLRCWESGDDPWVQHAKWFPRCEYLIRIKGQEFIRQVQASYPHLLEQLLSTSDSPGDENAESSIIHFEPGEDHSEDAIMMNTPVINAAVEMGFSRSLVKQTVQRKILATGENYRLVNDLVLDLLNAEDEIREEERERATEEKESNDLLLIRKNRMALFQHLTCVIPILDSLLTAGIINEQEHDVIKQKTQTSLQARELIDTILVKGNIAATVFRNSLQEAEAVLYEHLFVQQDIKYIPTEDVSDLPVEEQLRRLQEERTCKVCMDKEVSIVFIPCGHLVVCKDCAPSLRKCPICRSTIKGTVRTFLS
UniProt Q96GI7, sequence (whole entry, looked up): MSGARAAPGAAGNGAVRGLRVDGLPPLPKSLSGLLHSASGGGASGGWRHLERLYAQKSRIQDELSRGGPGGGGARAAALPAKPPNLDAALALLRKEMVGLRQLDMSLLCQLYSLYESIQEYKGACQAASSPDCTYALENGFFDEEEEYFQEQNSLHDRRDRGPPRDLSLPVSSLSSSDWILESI
UniProt Q96GD4, sequence (whole entry, looked up): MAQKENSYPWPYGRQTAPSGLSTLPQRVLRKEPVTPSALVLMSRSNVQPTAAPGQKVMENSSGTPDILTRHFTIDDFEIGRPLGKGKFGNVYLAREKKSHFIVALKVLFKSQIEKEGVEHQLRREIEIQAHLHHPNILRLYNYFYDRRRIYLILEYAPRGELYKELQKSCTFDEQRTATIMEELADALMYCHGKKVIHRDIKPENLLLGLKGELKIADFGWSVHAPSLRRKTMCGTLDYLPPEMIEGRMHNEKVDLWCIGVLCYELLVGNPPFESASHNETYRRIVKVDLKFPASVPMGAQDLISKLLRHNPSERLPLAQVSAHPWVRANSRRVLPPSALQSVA
UniProt P51853, sequence (whole entry, looked up): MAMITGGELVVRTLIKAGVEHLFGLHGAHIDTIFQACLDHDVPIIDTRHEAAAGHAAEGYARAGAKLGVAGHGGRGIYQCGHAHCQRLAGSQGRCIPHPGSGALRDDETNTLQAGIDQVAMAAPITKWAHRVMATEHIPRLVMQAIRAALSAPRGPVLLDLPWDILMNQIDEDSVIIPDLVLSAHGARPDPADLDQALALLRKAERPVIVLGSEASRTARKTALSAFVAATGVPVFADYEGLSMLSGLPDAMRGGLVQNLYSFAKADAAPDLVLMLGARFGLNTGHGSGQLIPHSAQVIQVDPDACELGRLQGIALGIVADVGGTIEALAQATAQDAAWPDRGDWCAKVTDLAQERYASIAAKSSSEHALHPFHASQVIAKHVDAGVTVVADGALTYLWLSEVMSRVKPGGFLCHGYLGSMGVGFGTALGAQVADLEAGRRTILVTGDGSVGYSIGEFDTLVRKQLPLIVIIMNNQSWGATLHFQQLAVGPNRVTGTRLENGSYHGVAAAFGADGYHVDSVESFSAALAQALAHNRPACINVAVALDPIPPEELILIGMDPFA
UniProt P25440, sequence (whole entry, looked up): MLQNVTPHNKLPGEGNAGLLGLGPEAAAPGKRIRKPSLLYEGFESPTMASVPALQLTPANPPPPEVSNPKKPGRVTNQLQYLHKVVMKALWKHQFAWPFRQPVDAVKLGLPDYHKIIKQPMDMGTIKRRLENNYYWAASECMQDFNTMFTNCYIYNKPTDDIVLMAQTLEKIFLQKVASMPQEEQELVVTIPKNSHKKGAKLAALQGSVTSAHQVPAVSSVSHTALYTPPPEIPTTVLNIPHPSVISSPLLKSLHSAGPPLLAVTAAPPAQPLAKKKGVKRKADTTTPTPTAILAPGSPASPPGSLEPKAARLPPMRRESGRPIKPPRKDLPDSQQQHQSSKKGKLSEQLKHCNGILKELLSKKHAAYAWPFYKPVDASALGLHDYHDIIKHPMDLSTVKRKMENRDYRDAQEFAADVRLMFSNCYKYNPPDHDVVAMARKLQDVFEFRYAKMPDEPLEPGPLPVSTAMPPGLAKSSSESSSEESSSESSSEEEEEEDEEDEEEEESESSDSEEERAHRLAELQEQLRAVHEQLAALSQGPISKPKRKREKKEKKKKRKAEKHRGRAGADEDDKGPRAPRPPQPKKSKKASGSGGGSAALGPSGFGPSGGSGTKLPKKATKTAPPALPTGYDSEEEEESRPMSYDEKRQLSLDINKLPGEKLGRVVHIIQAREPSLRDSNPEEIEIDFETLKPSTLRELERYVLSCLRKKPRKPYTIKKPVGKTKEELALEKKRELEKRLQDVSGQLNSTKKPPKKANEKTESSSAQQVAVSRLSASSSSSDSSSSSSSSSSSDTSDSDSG
UniProt Q16774, sequence (whole entry, unmodified, looked up): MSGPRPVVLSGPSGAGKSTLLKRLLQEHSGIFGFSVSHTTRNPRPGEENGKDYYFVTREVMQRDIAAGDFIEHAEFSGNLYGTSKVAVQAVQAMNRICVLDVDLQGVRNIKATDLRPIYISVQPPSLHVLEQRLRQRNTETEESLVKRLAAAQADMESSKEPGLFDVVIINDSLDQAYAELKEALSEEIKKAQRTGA

Structure (SMILES)	target	assay	system	conditions	Kd [µM]
CC[C@H](C)[C@H](NC(=O)[C@H](CC(C)C)NC(=O)[C@H](Cc1ccc(OP(=O)(O)O)cc1)NC(=O)[C@H](CCC(=O)O)NC(=O)[C@H](CC(=O)O)NC(=O)[C@H](C)NC(=O)[C@H](CC(=O)O)NC(=O)[C@@H](NC(=O)[C@@H](NC(=O)[C@H](CC(=O)O)NC(=O)[C@H](CC(=O)O)NC(=O)[C@H](CCSC)NC(=O)c1ccc2c(c1)C(=O)OC21c2ccc(N(C)C)cc2Oc2cc(N(C)C)ccc21)C(C)C)C(C)C)C(=O)N1CCC[C@H]1C(=O)N[C@@H](CCC(N)=O)C(=O)N[C@@H](CCC(N)=O)C(=O)NCC(=O)N[C@@H](Cc1ccccc1)C(=O)N[C@@H](CC(=O)O)C(=O)O	Proto-oncogene vav, SH2 domain (Homo sapiens, UniProt P15498)	binding	–	–	1.05
O=C(O)CCC(=O)c1cccs1	BRAP ZnF-UBD domain	–	–	–	> 1000
Cc1cc(Nc2ncc3c(n2)N(C)C(=O)N(c2cc(NC(=O)c4cccc(C(F)(F)F)c4)ccc2C)C3)n(C)n1	TGFBR2 (Homo sapiens, UniProt P37173)	competition binding	–	11-point threefold dilution	> 10
COc1cc(Nc2ncc3c(n2)-c2ccc(Cl)cc2C(c2c(F)cccc2OC)=NC3)ccc1C(=O)NCCOCCOCCNC(=O)COc1cccc2c1C(=O)N(C1CCC(=O)NC1=O)C2=O (stereo not drawn)	Aurora kinase B, with INCENP (AURKB, Homo sapiens, UniProt Q96GD4)	binding, kinobead competition	MV4-11 cell lysate	–	1.73
CCN(CC)Cc1ccc2cc(COC(=O)Nc3ccc(C(=O)NO)cc3)ccc2c1	HDAC4	inhibitor, competition pulldown	SW620 and MV4-11 lysate	1 h	> 30.2
O=C(O)Cc1cccnc1	BRAP ZnF-UBD domain	–	–	–	73.9
O=C1OC2(c3ccccc31)c1cc(Br)c(O)c(Br)c1Oc1c2cc(Br)c(O)c1Br	bznB (Pseudomonas fluorescens, UniProt P51853)	UV-vis absorbance titration	–	–	98 ± 5
O=C(O)CCC(=O)c1ccc2c(c1)CCC(=O)N2	BRAP ZnF-UBD domain	–	–	–	126
Cc1ccc(C(=O)Nc2ccc(S(=O)(=O)O)c3cc(S(=O)(=O)O)cc(S(=O)(=O)O)c23)cc1NC(=O)c1cccc(NC(=O)Nc2cccc(C(=O)Nc3cc(C(=O)Nc4ccc(S(=O)(=O)O)c5cc(S(=O)(=O)O)cc(S(=O)(=O)O)c45)ccc3C)c2)c1	SLC25A13 (Homo sapiens, UniProt Q9UJS0)	binding, isothermal titration calorimetry	–	pH 6.5, 18 °C, vesicle-reconstituted	7.58 ± 3.17
COc1cc(O)c2c(c1)oc(=O)c1c3cc(O)c(O)cc3oc21	MAL12 (Saccharomyces cerevisiae S288c, UniProt P53341)	fluorescence quenching	–	310 K	13.6
Nc1nc2c(ncn2[C@@H]2O[C@H](COP(=O)(O)O)[C@@H](O)[C@H]2O)c(=O)[nH]1	GUK1 (Homo sapiens, UniProt Q16774, D103A)	binding, ITC	–	25 °C, added: GMP	95 ± 2
CC(C)(COP(=O)(O)OP(=O)(O)OC[C@H]1O[C@@H](n2cnc3c(N)ncnc32)[C@H](O)[C@@H]1OP(=O)(O)O)[C@@H](O)C(=O)NCCC(=O)NCCS	NAA40 (Homo sapiens, UniProt Q86UY6)	competitor, competition MS pulldown	SW-620 cell lysate	added: photo-immobilized beads	5.46
O=C(O)CC(=O)C(=O)O	Uncharacterized protein (Pelagibacter ubique, UniProt Q4FKX4)	isothermal titration calorimetry	Candidatus Pelagibacter ubique	one-set-of-sites model	0.0096 ± 0.0039
Nc1nc(-c2ccc(Cl)c(S(N)(=O)=O)c2)cs1	CA5A (Homo sapiens, UniProt P35218)	thermal shift	–	pH 7.0, 25 °C	0.67
O=C(O)CCc1cn2cccnc2n1	BRAP ZnF-UBD domain	–	–	–	416
CC(=O)N[C@H](C(=O)N1C[C@H](O)C[C@H]1C(=O)NCc1ccc(-c2scnc2C)cc1)C(C)(C)SCCCCCCNC(=O)C[C@@H]1N=C(c2ccc(Cl)cc2)c2c(sc(C)c2C)-n2c(C)nnc21	BRD2/VHL, BD2; with VCB (Homo sapiens, UniProt P25440+P40337)	ITC	–	25 °C, PROTAC:Brd2^BD2, ternary	0.078 ± 0.006
C[C@H](N)C(=O)N[C@@H](CCCCNC(=O)CCCCC(=O)NCCCC[C@H](NC(=O)[C@H](C)N)C(=O)N1CCC[C@H]1C(=O)N[C@@H](Cc1ccccc1)C(=O)N[C@H](CCCCNC(=O)c1ccc2c(c1)C(=O)OC21c2ccc(O)cc2Oc2cc(O)ccc21)C(N)=O)C(=O)N1CCC[C@H]1C(=O)N[C@@H](Cc1ccccc1)C(N)=O	Baculoviral IAP repeat-containing protein 3, BIR3 domain (BIRC3, Homo sapiens, UniProt Q13489)	binding, fluorescence polarisation	–	added: tracer 1 nM	0.0019 ± 0.001

Structure (SMILES)	target	assay	system	conditions	Kd [µM]
Cc1cc(NC(=O)CCC(=O)O)nn1C	BRAP ZnF-UBD domain	–	–	–	> 1000
CCCN1CCN(c2ccc(-c3cncc(Cl)c3N3CCC4(CCNC4=O)CC3)cc2)CC1	Protein FAM89A (FAM89A, Homo sapiens, UniProt Q96GI7)	SILAC displacement	LS174T-L5 cell lysate	–	3.59
O=C(O)Cc1c[nH]c2ccccc12	ERABP1/TMK1, TMK1 extracellular domain (Arabidopsis thaliana, UniProt P33487+P43298)	binding, microscale thermophoresis	–	–	0.094
Nc1ncnc2c1ncn2[C@@H]1O[C@H](COP(=O)(O)OP(=O)(O)O)[C@@H](O)[C@H]1O	CKMT1A (Homo sapiens, UniProt P12532)	microscale thermophoresis	–	pH 7.0, WT mutant, no substrate	5 ± 1
O=C(O)CNC(=O)c1ccc(C(=O)N2CCC(c3ccc(Cl)cc3)CC2)cn1	BRAP ZnF-UBD domain	–	–	–	537
Nc1ncnc2c1ncn2[C@@H]1O[C@H](COP(=O)(O)OS(=O)(=O)O)[C@@H](OP(=O)(O)O)[C@H]1O	SULT2A1 (Homo sapiens, UniProt Q06520)	intrinsic fluorescence titration	–	pH 7.4, without DHEA	0.26 ± 0.04
O=C(O)CSc1nnc(NC(=O)COc2ccccc2)s1	BRAP ZnF-UBD domain	–	–	–	703
CCCCOc1ccc(CC(=O)NO)cc1	HDAC4	inhibitor, competition pulldown	SW620 and MV4-11 lysate	1 h	> 30.2
Nc1nc(CC(=O)O)cs1	BRAP ZnF-UBD domain	–	–	–	> 1000
CCCN1CCN(c2cccc(-c3cnccc3N3CCCC4(CCNC4=O)C3)c2)CC1 (stereo not drawn)	PIKFYVE (Homo sapiens, UniProt Q9Y2I7)	SILAC displacement	LS174T-L5 cell lysate	–	0.012
Nc1nc2c(ncn2[C@@H]2O[C@H](COP(=O)(O)OP(=O)(O)OP(=O)(O)O)[C@@H](O)[C@H]2O)c(=O)[nH]1	GTP-binding protein gtr1, with Gtr2 (gtr1, Schizosaccharomyces pombe, UniProt O74824)	UV crosslinking titration	–	4 °C	0.014
C/C=C1\NC(=O)[C@H]2CSSCC/C=C/[C@H](CC(=O)N[C@H](C(C)C)C(=O)N2)OC(=O)[C@H](C(C)C)NC1=O	HDAC4	inhibitor, competition pulldown	SW620 and MV4-11 lysate	1 h	0.101
N[C@H]1C(O)O[C@H](CO)[C@@H](O)[C@@H]1O (stereo partly drawn)	ABCB1 (Homo sapiens, UniProt P08183)	surface plasmon resonance	SMA-extracted MCF-7/ADR membrane liposomes	L1 chip	3090
C#Cc1c(F)ccc2cc(O)cc(-c3ncc4c(N5CC6CCC(C5)N6)nc(OC[C@@]56CCCN5C[C@H](F)C6)nc4c3F)c12	GTPase NRas, GDP-bound (NRAS, Homo sapiens, UniProt P01111)	SPR	–	–	10.9
C=CC1=C(C)C2=Cc3c(C=C)c(C)c4[n]3[Fe]([Cl])[n]3c(c(C)c(CCC(=O)O)c3=CC3=NC(=C4)C(C)=C3CCC(=O)O)=CC1=N2	5-aminolevulinate synthase, erythroid-specific, mitochondrial, N-terminal truncation (Human, UniProt P22557)	binding	–	–	0.589
Nc1ncnc2c1ncn2[C@@H]1O[C@@H]2COP(=O)(O)O[C@@H]3[C@H](O)[C@@H](COP(=O)(O)O[C@H]2[C@H]1O)O[C@H]3n1cnc2c(N)ncnc21	STING1 (Homo sapiens, UniProt Q86WV6, R220H)	binding	–	–	4.98 ± 0.82

Some of these lines once more:
Structure (SMILES)	target	assay	system	conditions	Kd [µM]
Nc1nc(-c2ccc(Cl)c(S(N)(=O)=O)c2)cs1	CA5A (Homo sapiens, UniProt P35218)	thermal shift	–	pH 7.0, 25 °C	0.67
O=C(O)CCc1cn2cccnc2n1	BRAP ZnF-UBD domain	–	–	–	416
